Experimental data collected from several papers.
Lines come from different studies, so protocols differ. Several values in a cell are separate wells, animals, samples, runs or records.

SMILES	target or system	test	test system	setting	scale	quantity	result
OC(CCN1CCCCC1)(c1ccccc1)C1CC2C=CC1C2 (stereo not shown)		resting-state EEG	healthy elderly humans	oral, 2 mg, eyes open, LS mean	relative to: baseline	change in EEG Beta3-power Pz-O1	11.3%
CC[C@H](c1ccc(O)cc1)[C@@H](CC)c1ccc(O)cc1	human iPSC-derived cardiomyocytes	MyBP-C/MYH ratio, plate-normalised SD score		concentration not given, primary screen	direction not given	activity score	3.8
C[C@H]1C[C@H]2CSC(N)=N[C@@]2(c2nc(NC(=O)c3ccc(OC(F)F)cn3)cs2)CO1		measured: total Aβ	healthy adults, plasma	275 mg once daily, day 14	relative to: placebo	percent change from baseline	-69%
O=C(O)c1ccc[n+]([O-])c1	human iPSC-derived cardiomyocytes	MyBP-C/MYH ratio, plate-normalised SD score		concentration not given, primary screen	direction not given	activity score	4.8
Oc1ccccc1-c1n[nH]cc1-c1ccnc2ccccc12	SHA3 (Candida albicans)	kinase binding, MIB/MS competition	Candida albicans lysate	10 µM	relative to: DMSO	log2 fold change	0.24
CCn1cc(-c2cc(Cn3ccnc3)cc3c2CCN([C@H](c2cc(OC)ccn2)C2CC2)C3=O)c(C(F)(F)F)n1	EBC-1	cell growth, inhibitor		120 h		EC50	> 30 µM
Cn1cc(-c2ccc(-c3cncc(Cl)c3N3CCC4(CCNC4=O)CC3)cc2)cn1	COLO 205	gene expression, microarray, measured: LCN2 mRNA		concentration not given, 6 h	relative to: untreated cells	log2 fold change	2.11
CC(C)=CCCC1(C)C=Cc2c(O)c3c(c(CC=C(C)C)c2O1)OC12C(=CCCC1C(C)(C)O[C@@]2(C/C=C(\C)C(=O)O)C(=O)O)C3=O (stereo partly shown)	human iPSC-derived cardiomyocytes	MyBP-C/MYH ratio, plate-normalised SD score		concentration not given, primary screen	direction not given	activity score	3.2
c1coc(-c2n[nH]cc2-c2ccnc3ccccc23)c1	KIN2 (Candida albicans)	kinase binding, MIB/MS competition	Candida albicans lysate	10 µM	relative to: DMSO	log2 fold change	-0.07
O=C(CCCCC(=O)Nc1c(I)cc(I)c(C(=O)O)c1I)Nc1c(I)cc(I)c(C(=O)O)c1I	human iPSC-derived cardiomyocytes	MyBP-C/MYH ratio, plate-normalised SD score		concentration not given, primary screen	direction not given	activity score	5.5
COc1cnc2cccc(N3CCc4c(cc(Cn5ccnc5C)cc4-c4cn(C)nc4C(F)(F)F)C3=O)c2c1	OVISE	cell growth, inhibitor		120 h		EC50	20.8 µM
CC(Nc1nc(N2CCCC2)nc2ccccc12)c1ccccc1 (stereo not shown)	importin beta-1	SREBP1 nuclear import, high content imaging	HeLa Kyoto	5.01 µM, 3 h, together with: glucose and MG132		cells with nuclear SREBP1	95.5% and 89.3% and 86.2% and 86.5%
Cc1ncc(CO)c(CO)c1O	human iPSC-derived cardiomyocytes	MyBP-C/MYH ratio, plate-normalised SD score		concentration not given, primary screen	direction not given	activity score	3.1
CCn1cc(-c2cc(Cn3ccoc3=N)cc3c2CCN([C@@H](C)c2cc(OC)ccn2)C3=O)c(C(F)(F)F)n1	SNU-182	cell growth, inhibitor		120 h		EC50	> 30 µM
CC[S+]([O-])c1nc(-c2ccccc2)cc(C(F)(F)F)n1 (stereo not shown)	importin beta-1	SREBP1 nuclear import, high content imaging	HeLa Kyoto	0.02 µM, 3 h, together with: glucose and MG132		cells with nuclear SREBP1	86.8% and 85.5% and 84.4% and 84%
O=C(O)CNC(=O)Cc1ccccc1			ventricular cardiomyocytes, C57BL/6 mouse	dose not given, 0.316 s		sarcomere length	1.72 µm
N#Cc1ccc2c(c1)[C@H]1CCCN(C(=O)c3ccc4[nH]cnc4c3)[C@H]1C2		measured: HDL	human	240 mg once daily, day 28, adjusted mean	relative to: placebo	change from baseline	-1.13 mg/dL
CCOC(=O)O[C@]1(C(=O)COC(=O)CC)CC[C@H]2[C@@H]3CCC4=CC(=O)C=C[C@]4(C)[C@H]3[C@@H](O)C[C@@]21C	human iPSC-derived cardiomyocytes	MyBP-C/MYH ratio, plate-normalised SD score		concentration not given, primary screen	direction not given	activity score	3.9
O=C(/C=C/C=C/C=C/C1CCCCC1)NC1=C[C@@](O)(/C=C/C=C/C=C/C(=O)NC2=C(O)CCC2=O)[C@@H]2O[C@@H]2C1=O	rmugs	cell growth, inhibitor, CellTiter-Glo luminescence		78 h	relative to: day 0 cell count	GI50	28.8 µM

For quick reference, copied from above:
SMILES	target or system	test	test system	setting	scale	quantity	result
C[C@H]1C[C@H]2CSC(N)=N[C@@]2(c2nc(NC(=O)c3ccc(OC(F)F)cn3)cs2)CO1		measured: total Aβ	healthy adults, plasma	275 mg once daily, day 14	relative to: placebo	percent change from baseline	-69%
